# Experimental data from different studies.
# Every numbered part comes from another study and shows a few of its results, in no order.
# Sequence of UniProt P41279 (whole entry, looked up): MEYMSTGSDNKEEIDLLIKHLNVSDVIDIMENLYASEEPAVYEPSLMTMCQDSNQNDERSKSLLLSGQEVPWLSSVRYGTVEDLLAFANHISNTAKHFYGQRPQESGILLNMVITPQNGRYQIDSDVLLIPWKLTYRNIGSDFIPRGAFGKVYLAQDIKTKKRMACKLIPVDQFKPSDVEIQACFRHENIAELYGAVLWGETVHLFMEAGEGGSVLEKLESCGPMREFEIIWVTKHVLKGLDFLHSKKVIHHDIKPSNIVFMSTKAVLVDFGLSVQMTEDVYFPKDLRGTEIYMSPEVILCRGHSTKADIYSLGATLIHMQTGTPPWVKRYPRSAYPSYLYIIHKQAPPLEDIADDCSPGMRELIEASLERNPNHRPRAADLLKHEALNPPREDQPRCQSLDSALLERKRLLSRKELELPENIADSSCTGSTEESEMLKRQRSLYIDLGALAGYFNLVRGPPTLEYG
# Sequence of UniProt P27448 (whole entry, looked up): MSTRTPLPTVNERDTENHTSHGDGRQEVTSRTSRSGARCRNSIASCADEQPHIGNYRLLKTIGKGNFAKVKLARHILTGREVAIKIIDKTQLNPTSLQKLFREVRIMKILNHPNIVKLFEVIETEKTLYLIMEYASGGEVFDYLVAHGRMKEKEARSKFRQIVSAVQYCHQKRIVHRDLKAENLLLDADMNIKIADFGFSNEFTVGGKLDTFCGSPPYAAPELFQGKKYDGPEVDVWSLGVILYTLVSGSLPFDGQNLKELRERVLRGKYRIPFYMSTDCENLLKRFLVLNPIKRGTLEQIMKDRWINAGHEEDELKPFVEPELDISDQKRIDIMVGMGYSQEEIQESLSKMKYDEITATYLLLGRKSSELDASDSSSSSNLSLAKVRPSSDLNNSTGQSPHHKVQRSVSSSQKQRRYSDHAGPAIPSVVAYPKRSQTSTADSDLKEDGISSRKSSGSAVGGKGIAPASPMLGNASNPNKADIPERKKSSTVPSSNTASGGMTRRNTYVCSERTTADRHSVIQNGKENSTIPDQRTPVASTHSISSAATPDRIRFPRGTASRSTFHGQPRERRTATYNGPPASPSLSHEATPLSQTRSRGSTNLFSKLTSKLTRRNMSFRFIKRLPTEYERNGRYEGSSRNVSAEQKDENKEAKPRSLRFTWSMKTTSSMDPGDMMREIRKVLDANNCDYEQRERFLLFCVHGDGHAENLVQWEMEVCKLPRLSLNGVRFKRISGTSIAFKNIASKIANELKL
# Sequence of UniProt Q15139 (whole entry, looked up): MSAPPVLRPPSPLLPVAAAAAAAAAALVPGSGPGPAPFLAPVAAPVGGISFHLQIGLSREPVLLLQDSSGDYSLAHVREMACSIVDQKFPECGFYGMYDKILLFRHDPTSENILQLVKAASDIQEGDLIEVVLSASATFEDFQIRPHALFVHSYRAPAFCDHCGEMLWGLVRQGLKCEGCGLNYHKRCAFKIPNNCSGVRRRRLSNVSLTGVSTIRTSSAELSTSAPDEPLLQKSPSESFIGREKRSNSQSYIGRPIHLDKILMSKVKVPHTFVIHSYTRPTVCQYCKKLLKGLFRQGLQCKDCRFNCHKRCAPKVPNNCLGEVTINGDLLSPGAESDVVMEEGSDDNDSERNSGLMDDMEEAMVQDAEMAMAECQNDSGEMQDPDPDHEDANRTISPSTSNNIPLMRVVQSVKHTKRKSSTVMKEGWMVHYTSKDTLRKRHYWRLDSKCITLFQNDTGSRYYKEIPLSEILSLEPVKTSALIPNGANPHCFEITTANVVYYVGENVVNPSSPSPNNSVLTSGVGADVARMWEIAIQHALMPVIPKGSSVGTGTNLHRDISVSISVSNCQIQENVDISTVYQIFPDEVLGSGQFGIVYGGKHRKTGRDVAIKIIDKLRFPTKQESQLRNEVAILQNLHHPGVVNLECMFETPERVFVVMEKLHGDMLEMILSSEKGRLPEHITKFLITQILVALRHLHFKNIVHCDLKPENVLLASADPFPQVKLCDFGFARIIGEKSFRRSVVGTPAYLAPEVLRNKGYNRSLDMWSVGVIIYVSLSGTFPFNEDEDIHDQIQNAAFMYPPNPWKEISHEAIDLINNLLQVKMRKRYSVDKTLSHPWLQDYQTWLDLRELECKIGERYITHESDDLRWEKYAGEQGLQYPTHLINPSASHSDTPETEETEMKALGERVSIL
# Sequence of UniProt Q9NSY1 (whole entry, looked up): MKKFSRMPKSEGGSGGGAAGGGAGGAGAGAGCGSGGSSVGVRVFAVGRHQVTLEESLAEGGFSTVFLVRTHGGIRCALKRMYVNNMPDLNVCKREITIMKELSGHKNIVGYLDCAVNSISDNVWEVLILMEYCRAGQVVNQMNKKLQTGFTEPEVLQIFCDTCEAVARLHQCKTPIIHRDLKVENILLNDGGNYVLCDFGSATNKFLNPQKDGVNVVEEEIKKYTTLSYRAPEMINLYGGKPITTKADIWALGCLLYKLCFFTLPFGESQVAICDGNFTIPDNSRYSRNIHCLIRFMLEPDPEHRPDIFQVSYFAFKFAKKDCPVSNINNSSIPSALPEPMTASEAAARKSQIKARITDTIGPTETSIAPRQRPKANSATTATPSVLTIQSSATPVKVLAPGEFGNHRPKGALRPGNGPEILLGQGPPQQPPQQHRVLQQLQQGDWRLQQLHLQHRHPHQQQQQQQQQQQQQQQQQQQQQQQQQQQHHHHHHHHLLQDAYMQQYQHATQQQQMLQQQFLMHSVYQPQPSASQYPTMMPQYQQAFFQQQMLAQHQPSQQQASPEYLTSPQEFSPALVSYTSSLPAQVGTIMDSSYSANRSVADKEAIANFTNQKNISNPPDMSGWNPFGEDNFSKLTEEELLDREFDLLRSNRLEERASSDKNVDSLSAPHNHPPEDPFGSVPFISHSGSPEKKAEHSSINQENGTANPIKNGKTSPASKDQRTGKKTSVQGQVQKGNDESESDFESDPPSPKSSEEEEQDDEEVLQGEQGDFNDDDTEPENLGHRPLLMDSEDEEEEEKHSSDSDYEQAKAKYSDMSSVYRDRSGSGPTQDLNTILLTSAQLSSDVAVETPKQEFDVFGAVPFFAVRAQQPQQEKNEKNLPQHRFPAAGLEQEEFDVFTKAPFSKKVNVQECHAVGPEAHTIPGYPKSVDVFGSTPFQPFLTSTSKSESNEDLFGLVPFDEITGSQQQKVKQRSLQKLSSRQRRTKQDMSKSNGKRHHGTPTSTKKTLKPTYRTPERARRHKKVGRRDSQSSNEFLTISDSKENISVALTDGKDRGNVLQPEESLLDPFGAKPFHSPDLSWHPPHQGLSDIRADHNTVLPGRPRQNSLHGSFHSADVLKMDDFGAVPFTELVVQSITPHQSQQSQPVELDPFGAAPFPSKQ
# Sequence of UniProt P07948 (whole entry, looked up): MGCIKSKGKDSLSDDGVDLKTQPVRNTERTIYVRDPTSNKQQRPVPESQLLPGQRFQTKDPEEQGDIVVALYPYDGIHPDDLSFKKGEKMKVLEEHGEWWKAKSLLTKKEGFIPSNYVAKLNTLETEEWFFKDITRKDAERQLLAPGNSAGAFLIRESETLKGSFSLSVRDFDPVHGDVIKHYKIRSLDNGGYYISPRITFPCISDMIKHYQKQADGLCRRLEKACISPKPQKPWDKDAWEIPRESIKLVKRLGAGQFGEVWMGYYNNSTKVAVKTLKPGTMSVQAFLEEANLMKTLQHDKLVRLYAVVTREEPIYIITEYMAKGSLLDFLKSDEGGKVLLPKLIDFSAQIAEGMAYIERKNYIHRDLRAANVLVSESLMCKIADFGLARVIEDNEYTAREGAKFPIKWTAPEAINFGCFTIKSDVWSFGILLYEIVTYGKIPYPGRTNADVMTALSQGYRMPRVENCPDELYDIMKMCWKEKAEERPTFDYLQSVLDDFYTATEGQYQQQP
# Sequence of UniProt Q9BWU1 (whole entry, looked up): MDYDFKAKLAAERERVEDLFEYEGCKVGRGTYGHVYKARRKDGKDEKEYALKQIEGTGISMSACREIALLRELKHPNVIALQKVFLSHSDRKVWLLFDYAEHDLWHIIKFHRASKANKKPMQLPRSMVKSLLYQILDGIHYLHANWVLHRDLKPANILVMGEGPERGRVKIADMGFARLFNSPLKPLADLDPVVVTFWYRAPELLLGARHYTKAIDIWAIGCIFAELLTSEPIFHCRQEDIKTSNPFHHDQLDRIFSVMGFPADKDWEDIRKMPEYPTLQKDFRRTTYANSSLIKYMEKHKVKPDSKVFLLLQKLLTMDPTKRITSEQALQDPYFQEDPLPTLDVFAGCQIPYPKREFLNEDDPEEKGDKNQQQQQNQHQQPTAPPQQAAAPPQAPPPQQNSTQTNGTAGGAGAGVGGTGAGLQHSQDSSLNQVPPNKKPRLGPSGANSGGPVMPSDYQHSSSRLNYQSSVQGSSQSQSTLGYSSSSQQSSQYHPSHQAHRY
# Sequence of UniProt P50613 (whole entry, looked up): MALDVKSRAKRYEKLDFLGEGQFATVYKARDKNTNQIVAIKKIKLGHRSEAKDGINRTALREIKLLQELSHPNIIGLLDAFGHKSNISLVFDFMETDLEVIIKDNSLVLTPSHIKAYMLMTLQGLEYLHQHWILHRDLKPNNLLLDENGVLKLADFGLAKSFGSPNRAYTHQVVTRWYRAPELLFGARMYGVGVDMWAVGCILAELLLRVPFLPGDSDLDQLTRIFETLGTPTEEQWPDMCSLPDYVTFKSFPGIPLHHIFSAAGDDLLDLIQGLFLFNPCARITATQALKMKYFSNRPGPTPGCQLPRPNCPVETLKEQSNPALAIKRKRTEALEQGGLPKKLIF
# Sequence of UniProt P19784 (whole entry, looked up): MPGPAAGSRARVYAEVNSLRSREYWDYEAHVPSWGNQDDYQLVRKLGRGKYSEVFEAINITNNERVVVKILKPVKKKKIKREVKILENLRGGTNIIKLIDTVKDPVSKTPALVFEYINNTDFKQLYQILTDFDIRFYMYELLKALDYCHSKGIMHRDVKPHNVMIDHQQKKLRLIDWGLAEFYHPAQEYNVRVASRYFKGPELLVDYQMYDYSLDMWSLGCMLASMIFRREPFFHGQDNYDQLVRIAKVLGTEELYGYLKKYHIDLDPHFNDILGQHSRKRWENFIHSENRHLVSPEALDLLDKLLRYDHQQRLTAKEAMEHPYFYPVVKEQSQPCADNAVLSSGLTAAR

# Set 1
# SMILES: O=C(NCCCC1CCCCC1)c1ccc(CNC(=O)c2cnn(-c3ccccc3)c2C(F)(F)F)cc1
# Tested at: 0.1 µM
target,assay,remaining binding [%]
"Ephrin type-B receptor 4 (EPHB4, Homo sapiens, UniProt P54760)","cell-free assay, competition with immobilised ligand",95
"Phosphatidylinositol 4-phosphate 3-kinase C2 domain-containing subunit beta (PIK3C2B, Homo sapiens, UniProt O00750)","cell-free assay, competition with immobilised ligand",86
"Serine/threonine-protein kinase WNK1 (WNK1, Homo sapiens, UniProt Q9H4A3)","cell-free assay, competition with immobilised ligand",100
"Megakaryocyte-associated tyrosine-protein kinase (MATK, Homo sapiens, UniProt P42679)","cell-free assay, competition with immobilised ligand",100
"Ephrin type-A receptor 2 (EPHA2, Homo sapiens, UniProt P29317)","cell-free assay, competition with immobilised ligand",80
"RAC-beta serine/threonine-protein kinase (AKT2, Homo sapiens, UniProt P31751)","cell-free assay, competition with immobilised ligand",100
"Bone morphogenetic protein receptor type-1A (BMPR1A, Homo sapiens, UniProt P36894)","binding, competition with immobilised ligand",100
"SNF-related serine/threonine-protein kinase (SNRK, Homo sapiens, UniProt Q9NRH2)","cell-free assay, competition with immobilised ligand",100
"MAP/microtubule affinity-regulating kinase 3 (MARK3, Homo sapiens, UniProt P27448)","cell-free assay, competition with immobilised ligand",94
"Receptor-type tyrosine-protein kinase FLT3 (FLT3, Homo sapiens, UniProt P36888, D835Y)","cell-free assay, competition with immobilised ligand",100
"Casein kinase I isoform gamma-1 (CSNK1G1, Homo sapiens, UniProt Q9HCP0)","cell-free assay, competition with immobilised ligand",100
"Tyrosine-protein kinase SYK (SYK, Homo sapiens, UniProt P43405)","cell-free assay, competition with immobilised ligand",100
"Serine/threonine-protein kinase PLK1 (PLK1, Homo sapiens, UniProt P53350)","cell-free assay, competition with immobilised ligand",93
"Tyrosine-protein kinase Lyn (LYN, Homo sapiens, UniProt P07948)","cell-free assay, competition with immobilised ligand",100
"Cyclin-dependent kinase 19 (CDK19, Homo sapiens, UniProt Q9BWU1)",competition binding,96
"Non-receptor tyrosine-protein kinase TNK1 (TNK1, Homo sapiens, UniProt Q13470)","cell-free assay, competition with immobilised ligand",88
"Serine/threonine-protein kinase 17A (STK17A, Homo sapiens, UniProt Q9UEE5)","cell-free assay, competition with immobilised ligand",100
"BMP-2-inducible protein kinase (BMP2K, Homo sapiens, UniProt Q9NSY1)","cell-free assay, competition with immobilised ligand",100
"Serine/threonine-protein kinase 36 (STK36, Homo sapiens, UniProt Q9NRP7)","cell-free assay, competition with immobilised ligand",100

# Set 2
# Cell line: A-375
# Tested at: 100 µM
# Time: 36 h
Compound,viability
C[C@H]1[C@H](C)CC[C@]2(C(=O)O)CC[C@]3(C)C(=CC[C@@H]4[C@@]5(C)C[C@@H](O)[C@H](O)[C@@](C)(CO)[C@@H]5CC[C@]43C)[C@H]12,0.335%
O=C1CN(/N=C/c2ccc([N+](=O)[O-])o2)C(=O)N1,21.7%
CNCCCN1c2ccccc2CCc2ccccc21,-1.34%
CC[C@H](C)C(=O)O[C@H]1CCC=C2C=C[C@H](C)[C@H](CC[C@@H]3C[C@@H](O)CC(=O)O3)[C@H]21,2.85%
CC1(C)S[C@@H]2[C@H](NC(=O)Cc3ccccc3)C(=O)N2[C@H]1C(=O)O,100%
O=C1CC2(CCCC2)CC(=O)N1CCCCN1CCN(c2ncccn2)CC1,90.5%
Cc1c(O)c(=O)n(-c2ccccc2)n1C,125%
Cc1cccc(C)c1OCC(=O)N[C@@H](Cc1ccccc1)[C@@H](O)C[C@H](Cc1ccccc1)NC(=O)[C@H](C(C)C)N1CCCNC1=O,30.7%
NC[C@H]1O[C@H](O[C@H]2[C@H](O[C@@H]3O[C@H](CO)[C@@H](O)[C@H]3O)[C@@H](O)[C@H](N)C[C@@H]2N)[C@H](N)[C@@H](O)[C@@H]1O,106%
COc1cc(C=O)ccc1O,120%
CC(=O)OCC(=O)NCCCOc1cccc(CN2CCCCC2)c1,89.9%
COc1ccc(-c2nc3ccc(C4=NNC(=O)CC4C)cc3[nH]2)cc1 (stereo not drawn),32.2%
COC(=O)[C@@H]1[C@H]2C[C@H]3c4[nH]c5ccccc5c4CCN3C[C@@H]2CC[C@@H]1O,53.7%
CC[C@H]1[C@@H](O)[C@@H]2[C@H](CC[C@]3(C)[C@@H]([C@H](C)CCC(=O)O)CC[C@@H]23)[C@@]2(C)CC[C@@H](O)C[C@@H]12,39.8%
CNC[C@H](O)c1ccc(O)c(O)c1,114%

# Set 3
# Medium: hydrocarbon/water
Compound,logD
CCCN1CC(=O)N[C@@H](CC2CCCCC2)C(=O)N(C)[C@@H](C)C(=O)N[C@@H](CC(C)C)C(=O)N(C)Cc2cn(nn2)CC(=O)N[C@@H](CC(C)C)C(=O)N(C)[C@@H](C)C(=O)N[C@@H](CC2CCCCC2)C(=O)N2CCC[C@@H]2C1=O,2
CCCCCN1CC(=O)NC(CC(C)C)C(=O)N(C)C(C)C(=O)NC(Cc2ccccc2)C(=O)N2CCCC2C(=O)N(CC)CC(=O)NC(CC(C)C)C(=O)N(C)C(C)C(=O)NC(CC(C)C)C(=O)N2CCCC2C1=O (stereo not drawn),2.83
CC(C)C[C@@H]1NC(=O)[C@H](C)N(C)C(=O)[C@H](CC2CCCCC2)NC(=O)[C@H](CC(C)C)N(C)C(=O)[C@H]2CCCN2C(=O)[C@H](CC2CCCCC2)NC(=O)[C@H](C)N(C)C(=O)[C@H](CC(C)C)NC(=O)Cn2cc(nn2)CN(C)C1=O,2.64
CCCCCN1CC(=O)NC(CC(C)C)C(=O)N(C)C(C)C(=O)NC(Cc2ccccc2)C(=O)N2CCCC2C(=O)N(CCCOC(C)C)CC(=O)NC(CC(C)C)C(=O)N(C)C(C)C(=O)NC(CC(C)C)C(=O)N2CCCC2C1=O (stereo not drawn),3.21
CCC[C@@H]1NC(=O)[C@H](C)N(C)C(=O)[C@H](CC(C)C)NC(=O)Cn2cc(nn2)CN(C)C(=O)[C@H](CC(C)C)NC(=O)[C@H](C)N(C)C(=O)[C@H](CC2CCCCC2)NC(=O)CN(CCC)C(=O)[C@H]2CCCN2C1=O,0.714
CCC[C@@H]1NC(=O)[C@H](C)N(C)C(=O)[C@H](CC(C)C)NC(=O)Cn2cc(nn2)CN(C)C(=O)[C@H](CC(C)C)NC(=O)[C@H](C)N(C)C(=O)[C@H](CC(C)C)NC(=O)[C@H](CC)N(C)C(=O)[C@H]2CCCN2C1=O,-0.516
CC[C@@H]1NC(=O)CN(CC)C(=O)[C@H]2CCCN2C(=O)[C@H](CC(C)C)NC(=O)[C@H](C)N(C)C(=O)[C@H](CC(C)C)NC(=O)Cn2cc(nn2)CN(C)C(=O)[C@H](CC(C)C)NC(=O)[C@H](C)N(C)C1=O,-1.89
CCCCCN1CC(=O)N[C@@H](Cc2ccccc2)C(=O)N2CCC[C@@H]2C(=O)N(C)[C@@H](CC(C)C)C(=O)N[C@@H](C)C(=O)N(CC)CC(=O)N[C@@H](CC(C)C)C(=O)N2CCC[C@@H]2C(=O)N(C)[C@@H](CC(C)C)C(=O)N[C@@H](C)C1=O,2.53

# Set 4
# SMILES: O=C1Cc2c([nH]c3ccc([N+](=O)[O-])cc23)-c2ccccc2N1
# Read-out: enzyme activity
# Mode: inhibitor
# Tested at: 0.5 µM
# Reference: control
target,remaining activity [%]
"Calcium/calmodulin-dependent protein kinase type 1G (CAMK1G, Homo sapiens, UniProt Q96NX5)",96
"Protein-tyrosine kinase 2-beta (PTK2B, Homo sapiens, UniProt Q14289)",82.9
"Homeodomain-interacting protein kinase 3 (HIPK3, Homo sapiens, UniProt Q9H422)",96.6
"NT-3 growth factor receptor (NTRK3, Homo sapiens, UniProt Q16288)",63.4
"Serine/threonine-protein kinase N2 (PKN2, Homo sapiens, UniProt Q16513)",74.5
"Mitogen-activated protein kinase kinase kinase 8 (MAP3K8, Homo sapiens, UniProt P41279)",99
"Myotonin-protein kinase (DMPK, Homo sapiens, UniProt Q09013)",91.6
"Proto-oncogene tyrosine-protein kinase ROS (ROS1, Homo sapiens, UniProt P08922)",80.2
"Serine/threonine-protein kinase Nek9 (NEK9, Homo sapiens, UniProt Q8TD19)",99.3
"Serine/threonine-protein kinase D1 (PRKD1, Homo sapiens, UniProt Q15139)",95.6
"Casein kinase II subunit alpha' (CSNK2A2, Homo sapiens, UniProt P19784)",64.4
"STE20-like serine/threonine-protein kinase (SLK, Homo sapiens, UniProt Q9H2G2)",96.2
"G protein-coupled receptor kinase 5 (GRK5, Homo sapiens, UniProt P34947)",107
"Mitogen-activated protein kinase 10 (MAPK10, Homo sapiens, UniProt P53779)",97.2
"Cyclin-dependent kinase 7 (CDK7, Homo sapiens, UniProt P50613)",99.9
"Proto-oncogene tyrosine-protein kinase receptor Ret (RET, Homo sapiens, UniProt P07949)",81.6
"Rho-associated protein kinase 2 (ROCK2, Homo sapiens, UniProt O75116)",82
"Mitogen-activated protein kinase kinase kinase 2 (MAP3K2, Homo sapiens, UniProt Q9Y2U5)",78
"Aurora kinase A (AURKA, Homo sapiens, UniProt O14965)",96
"Serine/threonine-protein kinase BRSK1 (BRSK1, Homo sapiens, UniProt Q8TDC3)",39.7
"Dual specificity tyrosine-phosphorylation-regulated kinase 4 (DYRK4, Homo sapiens, UniProt Q9NR20)",106
